Experimental data of several laboratories.
Every numbered part comes from another study and shows a few of its results, in no order. Substitutions count along the parent as printed.

Block 1 — method: competition protein-binding microarray; form: double-stranded DNA, one strand shown; sample: in vitro; tested at: 2 µM; added: Cbf1 competitor, 0.05 µM; direction: higher = stronger binding
Target: Phosphate system positive regulatory protein PHO4, full length, GST-tagged (PHO4, Saccharomyces cerevisiae, UniProt P07270, residues 1-312)
Notes: whole 60-bp probe, lowest competitor level
Target sequence (chain): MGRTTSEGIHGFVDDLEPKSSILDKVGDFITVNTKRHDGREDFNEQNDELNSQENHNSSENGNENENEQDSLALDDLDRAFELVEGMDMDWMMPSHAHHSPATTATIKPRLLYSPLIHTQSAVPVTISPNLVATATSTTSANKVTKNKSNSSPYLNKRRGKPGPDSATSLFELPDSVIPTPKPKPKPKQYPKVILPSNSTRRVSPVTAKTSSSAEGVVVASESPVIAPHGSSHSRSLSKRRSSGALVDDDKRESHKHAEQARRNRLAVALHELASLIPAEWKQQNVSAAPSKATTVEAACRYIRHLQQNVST
Strand | fluorescence intensity [a.u.]
GTATTCTAGCAGCCGCTCGTGCAAAGTGTTCAATGCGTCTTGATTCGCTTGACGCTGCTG | 9130
CGTCCTAGCGATTTCCACGTGTTTTCCATGAGGAAGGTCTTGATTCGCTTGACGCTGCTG | 17000
ATTCGAAATGATTCGGGCGTGCAAATGAAGCTCTTGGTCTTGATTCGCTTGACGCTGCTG | 5980
TTTGCCTGGCAATATAACGTGCGATAGGTATTCATCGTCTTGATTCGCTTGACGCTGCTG | 8490
ACACCAAATCCGAGTCACGTTCCTTCTTGATTAGTGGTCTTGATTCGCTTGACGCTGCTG | 15400
TACGCCTGTACTACCCACGTTGCCCCAGAACGTCCCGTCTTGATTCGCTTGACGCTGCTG | 16100
AAAGTTGGGTGTCTGCGTGTGTGTATGTTTCCAATTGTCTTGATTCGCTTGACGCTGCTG | 9030
TGCGCAACAACTTGTCACGTCACTTTATGTCTAGAAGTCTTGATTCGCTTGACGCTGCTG | 4550
AATCACCAATGGCAAAGCGTGCAAAATCAACATTTGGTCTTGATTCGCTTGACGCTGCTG | 7120
ACCTTCTAATTTTGGAGCGTGACGAATGGCCTCAATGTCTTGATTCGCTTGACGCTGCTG | 7550
TTCAACTTGGAATCCGACGTGATGGACTCAACGCCAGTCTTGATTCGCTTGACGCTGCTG | 3040
GATATCCTTTCCCATCACGTGAAGGGTGTTTCGCTGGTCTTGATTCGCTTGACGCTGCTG | 12300
AAATTACTAAGTTGCCCGGTGGGTGACGCCGTATGAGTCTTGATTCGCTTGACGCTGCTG | 3860
TACTTTCTACGCGGCCACGTGCAATTAAAAGATGGCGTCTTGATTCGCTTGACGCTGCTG | 18500
AGATCTTCGAAGAACCACATGTTGGATGACCGGGCAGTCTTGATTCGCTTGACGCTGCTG | 9430
TAGGATGACCGTCACCATGTGATCCAAATGCACTCAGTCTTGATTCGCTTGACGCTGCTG | 8720
TCTAACATATCCTTTCTCATGACAGTATTCATGGATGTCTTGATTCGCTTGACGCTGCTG | 4810
CAAGGGATTTTGACGCCCGTGACGGAGGATGATTTGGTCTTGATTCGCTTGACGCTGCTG | 6080
AAATTACTAAGTTGTAATGTGGGTGACGCCGTATGAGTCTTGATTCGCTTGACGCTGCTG | 4640
GTAGTCCTCTTTCGTCACGTCAAAATTTCAGATCCTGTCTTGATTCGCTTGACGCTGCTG | 2990
GCGCTGTTCTGCGGATGCGTGACGGTATCCGCAAAGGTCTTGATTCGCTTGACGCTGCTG | 5400
CGTCCTAGTGATTGGCCGGTGGGTGCCATGAGGAAGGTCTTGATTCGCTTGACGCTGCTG | 5940
CTTCTGTAAATTTGACGCGTGGGTGGACGCGCCCCGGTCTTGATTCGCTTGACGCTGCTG | 9060

Block 2 — method: RNA Bind-n-Seq; form: RNA; sample: in vitro; tested at: 365 nM; reference: no-protein control; direction: higher = stronger binding
Target: RNA binding protein fox-1 homolog 2, RRM domain, GST-SBP tag (RBFOX2, Homo sapiens, UniProt O43251-10, residues 100-194)
Notes: natural RNA segment, single round, ends assumed
Construct (chain): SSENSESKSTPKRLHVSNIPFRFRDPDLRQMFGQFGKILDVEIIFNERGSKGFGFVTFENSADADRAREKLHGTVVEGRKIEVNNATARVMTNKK
Strand | RBNS enrichment (R)
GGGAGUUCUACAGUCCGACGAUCCAGCCACCCCUCCCGCUCGUGCACAGGCACGCAGAUGCGCUCACACGUACACACACACAAAUGCACGCCCACUUGCACAUGCUCACGCACAUGUUCACACAUGCACACUCUGGAAUUCUCGGGUGCCAA | 1.25
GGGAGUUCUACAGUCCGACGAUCGCACCAACCCCAGCUCGACCCUUCCAAUCUUCCCUGCACUGCCGCUGCCCGCUGGGGACCAGUUCCCACGAGCCUGUCACACCCCAGUCCUGUGUUACAAUUUUUCGUUUUGGAAUUCUCGGGUGCCAA | 0.948
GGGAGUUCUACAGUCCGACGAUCGGGUUUCCUGCUGCCUGCCCUGGCCCGUGAGAGACGCACGCAACAAACGGAAGAAUUAGAGACGUCCUACAAGGCAGAUUCAGACCAAUAUUUCUUCGUAUAGUUUAUUCUGGAAUUCUCGGGUGCCAA | 1.17
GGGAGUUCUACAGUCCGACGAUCUUCCUUUAAAAUAAUUGGGCCAUCCAUUCUCUGUCUCCAUUAUCGCUGUCAACAGAAGUUAUGGUUUGUAUGUGAGCCCUUUCCUCUCAACUGCUUUACUAAGGAGCAAUUGGAAUUCUCGGGUGCCAA | 0.34
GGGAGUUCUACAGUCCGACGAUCAAUAUUUAUUUUGCCUCAUUUACUUUAUUUUCAGUUUUAGAUGAGGUGAAGGUUUUCUUUCAGUUAGGGUACUUGGCAAGGUCCAUUCUAGUGUAGCUGAAGAGGAAGCUUGGAAUUCUCGGGUGCCAA | 0.427
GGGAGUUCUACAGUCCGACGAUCUCCAGCUAUUGAAAGCAACAACCUAAUGGGUCCAUUUGGUCCCCCUGGGUCAUUUUAACAAGGGUGAGGUAUUUAGCAUCAAAUAAAAAGAUUGUAGUCAGCAUUUCAUUUGGAAUUCUCGGGUGCCAA | 1.39
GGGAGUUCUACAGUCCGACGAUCUUAGCUCUCUCAGAUCCUAUCCUGUGGAAUUUAGUUAUUAUGUGUAUUUAUGUAGUAUUUCAAACAUUUCAAAAUGCUUUCAUCUAUGUUUAUCACAUUUUAAUACCACAUGGAAUUCUCGGGUGCCAA | 0.232
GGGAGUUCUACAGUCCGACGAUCUUAUUAAAAUGUAUAACAAUGUGAUUUUUCAAUGGUAUUAGUUCAAAUUGACGUGGAUUCAUGCCACAUGGAAAUCUUUAAUUUAUUUGUUGAGGUACCAUAUAGCCAGGUGGAAUUCUCGGGUGCCAA | 0.347
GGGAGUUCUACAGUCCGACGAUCCCCGUAUUUGGAAAGUGUGGAGUUUGUGUUGGAAAAGCUGCCUGGAGAGAAGAGUUGUGUCCUUUACCAUAGCAACAGGAUUCAUUGGGGGAUCAAAAUCAUAAUUUUAAUGGAAUUCUCGGGUGCCAA | 1.16
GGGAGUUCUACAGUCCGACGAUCUGGGGGGUGGGAGAGCGAUUACUCUGUGUUUAGGUUUGUCACGCACAUUCUUUGCAUCUGUAUUGUACCAGCUUUAUAGCACUGUUUCAUGCCAAAGUUCUGAUGACGUAUGGAAUUCUCGGGUGCCAA | 1.06
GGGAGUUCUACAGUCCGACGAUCAAAAUCUUACAGACUAGCUUUAGGAACAUAGUGUCAAACAAAGCUGCUGCUUUAGUCUUCUUUUCUUUGAUGCUUUGUUUAGAUGUUUAUAAGAAAUAGGUUUAUUUUUCUGGAAUUCUCGGGUGCCAA | 0.435
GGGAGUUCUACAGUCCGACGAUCCUCCCCAAAAGCCACUGCUGGGAUGCUGGCCUCUGAUUUUUGAGCCAGCGUUGUCUCACUCUGAUCCCUACCCUGAGCCUGCUGAACUGCCCUCAGAGUGCUCAUAUGGGUGGAAUUCUCGGGUGCCAA | 0.343

Block 3 — target: CCND1, cyclin fold, Cln2 fusion (human); method: yeast growth competition, sequencing; sample: yeast; notes: strong parent motif; reference: not given; direction: higher = stronger binding
Starting sequence: INSM1 docking peptide (human); PKAIRKLHFEDEV; partner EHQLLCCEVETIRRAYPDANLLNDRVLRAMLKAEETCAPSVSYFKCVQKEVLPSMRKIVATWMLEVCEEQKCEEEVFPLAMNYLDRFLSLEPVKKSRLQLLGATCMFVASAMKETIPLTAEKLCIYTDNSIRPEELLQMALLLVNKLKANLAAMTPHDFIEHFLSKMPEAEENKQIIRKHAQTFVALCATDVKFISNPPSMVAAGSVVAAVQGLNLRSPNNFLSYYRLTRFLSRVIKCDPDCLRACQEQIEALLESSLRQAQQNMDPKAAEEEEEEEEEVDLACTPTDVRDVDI
Change | normalised enrichment score
E12I | 4.02
K2G | 5.27
E10C | 3.15
I4F | 0.796
D11C | 3.58
I4S | 3.42
K6H | 3.29
I4V | 3.4
K2L | 3.13
R5T | 0.72
D11Q | 3.22
K6G | 0.485
L7G | -0.0931
H8P | 1.83
A3C | 4.47
K6R | 4.04
K6P | 0.477
A3L | 0.338
D11Y | 2.79
H8A | 4.88
R5I | 1.34
E12Q | 3.63
K2W | 2.51
E10K | 2.01
F9R | 0.0205

Further values, each from its own experiment
Molecule | target | assay | test system | setting | how to read | measurement | result
PhoQ, residues 284 288 289 292 302 303 SLKLQV | PhoP, residues 12 14 15 18 19 NQCAL (Escherichia coli, UniProt P23836) | Sort-seq, item: YFP reporter | E. coli | PhoQ-PhoP variant library, added: 10 µM Mg2+ | reference: high Mg2+ state, higher = stronger signaling | fold induction | 8.39

Excerpt of the above (block 2):
Strand | RBNS enrichment (R)
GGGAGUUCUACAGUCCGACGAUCGGGUUUCCUGCUGCCUGCCCUGGCCCGUGAGAGACGCACGCAACAAACGGAAGAAUUAGAGACGUCCUACAAGGCAGAUUCAGACCAAUAUUUCUUCGUAUAGUUUAUUCUGGAAUUCUCGGGUGCCAA | 1.17
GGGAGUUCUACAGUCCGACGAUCUUCCUUUAAAAUAAUUGGGCCAUCCAUUCUCUGUCUCCAUUAUCGCUGUCAACAGAAGUUAUGGUUUGUAUGUGAGCCCUUUCCUCUCAACUGCUUUACUAAGGAGCAAUUGGAAUUCUCGGGUGCCAA | 0.34
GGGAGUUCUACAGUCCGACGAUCAAUAUUUAUUUUGCCUCAUUUACUUUAUUUUCAGUUUUAGAUGAGGUGAAGGUUUUCUUUCAGUUAGGGUACUUGGCAAGGUCCAUUCUAGUGUAGCUGAAGAGGAAGCUUGGAAUUCUCGGGUGCCAA | 0.427
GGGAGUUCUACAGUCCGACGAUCUCCAGCUAUUGAAAGCAACAACCUAAUGGGUCCAUUUGGUCCCCCUGGGUCAUUUUAACAAGGGUGAGGUAUUUAGCAUCAAAUAAAAAGAUUGUAGUCAGCAUUUCAUUUGGAAUUCUCGGGUGCCAA | 1.39
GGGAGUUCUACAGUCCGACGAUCUUAGCUCUCUCAGAUCCUAUCCUGUGGAAUUUAGUUAUUAUGUGUAUUUAUGUAGUAUUUCAAACAUUUCAAAAUGCUUUCAUCUAUGUUUAUCACAUUUUAAUACCACAUGGAAUUCUCGGGUGCCAA | 0.232
